Experimental data gathered from unrelated publications.
Numbered parts are unrelated; each lists some results of a single study. Positions count from the first letter of the parent shown.
UniProt Q8WXR4, sequence (whole entry, looked up): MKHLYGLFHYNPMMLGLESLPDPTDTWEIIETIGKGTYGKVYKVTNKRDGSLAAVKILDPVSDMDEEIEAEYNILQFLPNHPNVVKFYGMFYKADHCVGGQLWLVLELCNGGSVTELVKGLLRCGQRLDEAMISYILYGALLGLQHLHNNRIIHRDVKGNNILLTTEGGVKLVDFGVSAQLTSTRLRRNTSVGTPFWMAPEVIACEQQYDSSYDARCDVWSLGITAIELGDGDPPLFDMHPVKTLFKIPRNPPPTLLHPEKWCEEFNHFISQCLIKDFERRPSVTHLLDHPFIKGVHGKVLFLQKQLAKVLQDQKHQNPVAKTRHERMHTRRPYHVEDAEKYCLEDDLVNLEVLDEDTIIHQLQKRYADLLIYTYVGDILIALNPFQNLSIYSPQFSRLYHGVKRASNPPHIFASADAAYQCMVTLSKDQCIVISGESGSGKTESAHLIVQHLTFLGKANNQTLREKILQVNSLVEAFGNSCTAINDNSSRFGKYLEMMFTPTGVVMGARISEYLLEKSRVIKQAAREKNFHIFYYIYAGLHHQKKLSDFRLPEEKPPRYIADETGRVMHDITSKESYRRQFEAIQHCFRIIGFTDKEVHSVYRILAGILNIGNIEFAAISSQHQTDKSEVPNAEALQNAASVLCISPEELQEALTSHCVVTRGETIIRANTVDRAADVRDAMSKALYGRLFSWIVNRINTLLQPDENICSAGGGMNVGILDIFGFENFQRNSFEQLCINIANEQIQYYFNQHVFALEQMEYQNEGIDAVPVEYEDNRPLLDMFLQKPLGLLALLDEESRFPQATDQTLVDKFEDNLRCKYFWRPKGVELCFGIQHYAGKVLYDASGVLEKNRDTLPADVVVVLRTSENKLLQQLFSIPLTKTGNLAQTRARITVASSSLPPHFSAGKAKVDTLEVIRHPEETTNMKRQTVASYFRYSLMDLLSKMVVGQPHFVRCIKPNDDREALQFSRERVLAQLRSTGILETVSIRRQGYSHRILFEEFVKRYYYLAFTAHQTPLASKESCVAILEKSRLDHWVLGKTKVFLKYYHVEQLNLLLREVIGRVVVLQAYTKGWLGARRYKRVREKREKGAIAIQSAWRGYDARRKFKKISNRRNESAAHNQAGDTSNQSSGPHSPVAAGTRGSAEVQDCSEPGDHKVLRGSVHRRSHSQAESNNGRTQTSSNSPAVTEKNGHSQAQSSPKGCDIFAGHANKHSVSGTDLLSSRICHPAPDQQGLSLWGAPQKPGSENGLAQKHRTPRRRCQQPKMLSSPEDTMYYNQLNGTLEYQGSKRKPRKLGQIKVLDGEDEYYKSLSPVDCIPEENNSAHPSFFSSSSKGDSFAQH
UniProt Q16539, sequence (whole entry, looked up): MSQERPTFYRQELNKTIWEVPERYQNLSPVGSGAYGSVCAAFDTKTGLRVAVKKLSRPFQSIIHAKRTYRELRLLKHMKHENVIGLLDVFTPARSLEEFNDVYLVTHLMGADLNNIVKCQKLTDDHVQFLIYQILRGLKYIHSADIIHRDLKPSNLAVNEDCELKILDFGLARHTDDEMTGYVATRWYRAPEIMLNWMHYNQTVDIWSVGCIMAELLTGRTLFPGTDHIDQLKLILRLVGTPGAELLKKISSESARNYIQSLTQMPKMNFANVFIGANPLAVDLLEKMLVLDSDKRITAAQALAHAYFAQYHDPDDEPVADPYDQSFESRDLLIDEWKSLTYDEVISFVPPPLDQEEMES
UniProt Q6P2M8, sequence (whole entry, looked up): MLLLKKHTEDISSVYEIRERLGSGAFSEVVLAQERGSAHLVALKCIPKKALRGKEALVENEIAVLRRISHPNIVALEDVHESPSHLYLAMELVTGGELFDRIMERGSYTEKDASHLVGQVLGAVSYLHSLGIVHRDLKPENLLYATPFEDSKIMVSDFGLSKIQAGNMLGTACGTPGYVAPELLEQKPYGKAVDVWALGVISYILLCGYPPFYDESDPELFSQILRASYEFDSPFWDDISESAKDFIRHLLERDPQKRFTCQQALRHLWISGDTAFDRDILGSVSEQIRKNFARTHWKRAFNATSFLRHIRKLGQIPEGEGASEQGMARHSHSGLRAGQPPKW
UniProt Q9UQB9, sequence (whole entry, looked up): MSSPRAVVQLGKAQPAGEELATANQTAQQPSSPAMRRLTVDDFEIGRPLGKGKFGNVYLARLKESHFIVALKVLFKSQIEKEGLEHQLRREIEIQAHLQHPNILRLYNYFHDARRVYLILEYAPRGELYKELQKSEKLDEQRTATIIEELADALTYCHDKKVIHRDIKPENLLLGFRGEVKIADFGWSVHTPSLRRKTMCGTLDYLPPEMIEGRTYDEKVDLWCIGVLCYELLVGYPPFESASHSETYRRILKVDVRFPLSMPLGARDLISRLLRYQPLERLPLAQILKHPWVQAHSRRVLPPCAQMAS
UniProt P57058, sequence (whole entry, looked up): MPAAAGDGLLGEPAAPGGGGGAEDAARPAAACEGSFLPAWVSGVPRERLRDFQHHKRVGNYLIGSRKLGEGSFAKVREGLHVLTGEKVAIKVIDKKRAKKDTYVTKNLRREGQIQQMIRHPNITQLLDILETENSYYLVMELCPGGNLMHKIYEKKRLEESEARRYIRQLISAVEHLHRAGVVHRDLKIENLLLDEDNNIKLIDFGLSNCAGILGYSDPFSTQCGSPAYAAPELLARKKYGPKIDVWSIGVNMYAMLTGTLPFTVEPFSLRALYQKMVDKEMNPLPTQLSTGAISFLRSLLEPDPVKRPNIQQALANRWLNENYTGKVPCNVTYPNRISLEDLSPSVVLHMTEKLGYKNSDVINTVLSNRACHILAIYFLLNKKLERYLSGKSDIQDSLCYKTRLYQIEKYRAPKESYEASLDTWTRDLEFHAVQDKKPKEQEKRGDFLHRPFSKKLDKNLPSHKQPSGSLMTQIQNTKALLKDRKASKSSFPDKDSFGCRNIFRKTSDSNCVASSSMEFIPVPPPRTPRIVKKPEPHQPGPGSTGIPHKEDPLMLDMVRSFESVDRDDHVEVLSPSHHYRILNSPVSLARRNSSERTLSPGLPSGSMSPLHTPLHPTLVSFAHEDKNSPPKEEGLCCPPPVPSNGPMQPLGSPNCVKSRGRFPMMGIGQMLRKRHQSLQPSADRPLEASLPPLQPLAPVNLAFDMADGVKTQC
UniProt Q9HAZ1, sequence (whole entry, looked up): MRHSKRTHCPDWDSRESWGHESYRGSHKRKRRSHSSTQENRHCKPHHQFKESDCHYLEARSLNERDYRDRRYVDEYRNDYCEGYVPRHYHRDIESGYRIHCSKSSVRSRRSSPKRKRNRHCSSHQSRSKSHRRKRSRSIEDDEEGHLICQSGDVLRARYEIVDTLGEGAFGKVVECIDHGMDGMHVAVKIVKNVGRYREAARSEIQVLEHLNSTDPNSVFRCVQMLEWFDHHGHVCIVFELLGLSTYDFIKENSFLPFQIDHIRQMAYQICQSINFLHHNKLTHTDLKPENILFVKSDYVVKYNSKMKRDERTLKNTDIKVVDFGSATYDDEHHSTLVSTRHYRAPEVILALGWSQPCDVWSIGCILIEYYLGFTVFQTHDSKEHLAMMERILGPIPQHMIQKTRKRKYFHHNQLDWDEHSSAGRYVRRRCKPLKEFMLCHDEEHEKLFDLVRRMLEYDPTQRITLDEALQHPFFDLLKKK
UniProt Q15759, sequence (whole entry, looked up): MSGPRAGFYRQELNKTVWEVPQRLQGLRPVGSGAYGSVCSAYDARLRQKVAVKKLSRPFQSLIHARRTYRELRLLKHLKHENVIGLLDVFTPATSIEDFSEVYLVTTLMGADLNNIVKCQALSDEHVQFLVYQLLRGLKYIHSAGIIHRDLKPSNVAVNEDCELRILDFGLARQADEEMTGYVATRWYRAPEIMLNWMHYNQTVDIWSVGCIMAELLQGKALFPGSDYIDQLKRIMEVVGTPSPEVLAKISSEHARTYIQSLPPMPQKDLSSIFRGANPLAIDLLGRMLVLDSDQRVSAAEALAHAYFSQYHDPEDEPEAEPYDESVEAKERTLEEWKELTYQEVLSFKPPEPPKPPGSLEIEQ

Sample 1 — Compound: O=C1NC(=O)/C(=C/c2ccc3nccnc3c2)S1; observed: enzyme activity; action: inhibitor; tested at: 0.5 µM; reference: control; measurement: remaining activity
PAK3 (Homo sapiens, UniProt O75914): 97.4%
MARK2 (Homo sapiens, UniProt Q7KZI7): 93%
MAPK11 (Homo sapiens, UniProt Q15759): 99.2%
Cyclin-dependent kinase 1, with cyclin A (CDK1, Homo sapiens, UniProt P06493): 90.7%
PRKG2 (Homo sapiens, UniProt Q13237): 106%
Myosin-IIIb (MYO3B, Homo sapiens, UniProt Q8WXR4): 83.8%
MAPK14 (Homo sapiens, UniProt Q16539): 92.9%
CLK4 (Homo sapiens, UniProt Q9HAZ1): 47.5%
PNCK (Homo sapiens, UniProt Q6P2M8): 101%
CAMK4 (Homo sapiens, UniProt Q16566): 106%
TLK2 (Homo sapiens, UniProt Q86UE8): 95.2%
AKT2 (Homo sapiens, UniProt P31751): 101%
TXK (Homo sapiens, UniProt P42681): 96.8%
RPS6KA4 (Homo sapiens, UniProt O75676): 115%

Sample 2 — Structure (SMILES): c1ccc(N2CCN(Cc3nc4ccccc4[nH]3)CC2)nc1; method: competition with immobilised ligand; tested at: 1 µM; measurement: remaining binding
PTK2B (Homo sapiens, UniProt Q14289); cell-free assay: 100%
MAPK15 (Homo sapiens, UniProt Q8TD08); binding: 100%
Receptor-type tyrosine-protein kinase FLT3, autoinhibited (FLT3, Homo sapiens, UniProt P36888); binding: 100%
STK32B (Homo sapiens, UniProt Q9NY57); binding: 100%
TEC (Homo sapiens, UniProt P42680); binding: 100%
GSK3A (Homo sapiens, UniProt P49840); cell-free assay: 66%
GRK1 (Homo sapiens, UniProt Q15835); binding: 92%
TBK1 (Homo sapiens, UniProt Q9UHD2); binding: 77%
Non-receptor tyrosine-protein kinase TYK2, JH1 (TYK2, Homo sapiens, UniProt P29597); binding: 100%
EPHB6 (Homo sapiens, UniProt O15197); cell-free assay: 75%
MYLK3 (Homo sapiens, UniProt Q32MK0); binding: 100%
Aurora kinase C (AURKC, Homo sapiens, UniProt Q9UQB9); binding: 100%
Mast/stem cell growth factor receptor Kit, autoinhibited (KIT, Homo sapiens, UniProt P10721); binding: 100%
HUNK (Homo sapiens, UniProt P57058); binding: 100%
PIK3CA (Homo sapiens, UniProt P42336, E545A); cell-free assay: 87%
CSNK1G1 (Homo sapiens, UniProt Q9HCP0); cell-free assay: 100%

Sample 3 — target: CEP164, C-terminal peptide (human); method: DHFR complementation, deep sequencing; sample: yeast; reference: wild type; reading: higher = weaker binding; measurement: binding free energy change
Setting: single substitutions, model-inferred values
Parent: PDZK1, PDZ domain 2 (human); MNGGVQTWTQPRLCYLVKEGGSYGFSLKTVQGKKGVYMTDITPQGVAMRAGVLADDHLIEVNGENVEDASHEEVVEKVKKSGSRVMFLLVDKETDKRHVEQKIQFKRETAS; partner HNRVKVYRF
E100H: -0.064 kcal/mol
V30C: 0.0646 kcal/mol
Q6W: 0.078 kcal/mol
A54I: 0.199 kcal/mol
Y15E: -0.139 kcal/mol
A69P: 0.422 kcal/mol
A47L: 1.14 kcal/mol
I103P: -0.0862 kcal/mol

Sample 4 — method: protein-binding microarray; molecule type: double-stranded DNA, one strand shown; sample: in vitro; tested at: 2540 nM top; setting: 60-bp whole probe; together with: salmon DNA 0.4 mg/ml; reference: random background probes; reading: higher = stronger binding; measurement: fitted relative affinity; all sequences stand within: GCCTAGCAC … GTCTTGATTCGCTTGACGCTGCTG
Target: Interferon regulatory factor 3, full length, phosphomimetic (IRF3, Homo sapiens, UniProt Q14653, residues 1-427, S386D/S396D/S398D/S402D/T404D/S405D)
Target sequence (chain): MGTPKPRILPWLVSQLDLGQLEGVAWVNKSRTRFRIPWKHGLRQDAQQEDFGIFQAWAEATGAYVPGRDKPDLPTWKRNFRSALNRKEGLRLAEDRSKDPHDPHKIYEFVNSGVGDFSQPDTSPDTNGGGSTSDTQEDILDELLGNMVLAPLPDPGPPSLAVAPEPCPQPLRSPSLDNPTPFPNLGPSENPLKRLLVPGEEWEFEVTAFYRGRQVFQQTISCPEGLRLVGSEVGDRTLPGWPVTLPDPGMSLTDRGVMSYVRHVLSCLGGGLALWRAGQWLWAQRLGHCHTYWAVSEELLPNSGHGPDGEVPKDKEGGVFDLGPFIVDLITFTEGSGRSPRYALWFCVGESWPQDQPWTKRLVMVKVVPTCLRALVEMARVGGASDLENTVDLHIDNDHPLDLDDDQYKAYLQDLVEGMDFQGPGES
TCCCAAGTCTTGTTTTACAATGTGCTA: 0.564 z-score
GAAGGACTGCTTTTCCTGACGTGCTAG: -0.151 z-score
TTAGATATCGGGTATCGATGAGTGCTA: -0.0234 z-score
TCAAAACTCACTCATGGCACTGTGCTA: -0.581 z-score
TTAGGACTGGGACTGCGTTAGTGCTAG: -1.12 z-score
TCAGGTGTCTTTTGTGGAACTGTGCTA: 0.0464 z-score
AACGGTATCCTTCTCCTGACGTGCTAG: 6.36 z-score
ACGTCTTCATGTTTTTTTCTGTGCTAG: 0.377 z-score

A few entries again (sample 3):
Q6W: 0.078 kcal/mol
E100H: -0.064 kcal/mol
Y15E: -0.139 kcal/mol
I103P: -0.0862 kcal/mol
V30C: 0.0646 kcal/mol
